Measurements gathered from unrelated publications.
Each numbered part is a random draw from the data of one study; scales do not carry over between parts. Changes are numbered by the printed parent chain.

Block 1 — technique: competition protein-binding microarray; form: double-stranded DNA, one strand shown; medium: in vitro; tested at: 2 µM; together with: Cbf1 competitor, 0.05 µM; reading: higher = stronger binding; shared flanks, not repeated: … GTCTTGATTCGCTTGACGCTGCTG
Target: Phosphate system positive regulatory protein PHO4, full length, GST-tagged (PHO4, Saccharomyces cerevisiae, UniProt P07270, residues 1-312)
Setting: whole 60-bp probe, lowest competitor level
Construct (chain): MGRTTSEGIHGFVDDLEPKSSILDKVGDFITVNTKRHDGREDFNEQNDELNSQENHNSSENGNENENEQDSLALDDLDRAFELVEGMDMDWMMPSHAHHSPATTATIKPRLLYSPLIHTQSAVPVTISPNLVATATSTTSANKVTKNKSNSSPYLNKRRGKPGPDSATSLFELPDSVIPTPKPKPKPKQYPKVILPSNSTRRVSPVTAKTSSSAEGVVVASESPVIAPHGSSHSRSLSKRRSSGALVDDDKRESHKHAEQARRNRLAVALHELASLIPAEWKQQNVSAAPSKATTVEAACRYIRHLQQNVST
Sequence	fluorescence intensity [a.u.]
AAGCCACAAACTTTTTGCATGACAGTCATTGTGTAC	4750
CTGCTTTCGTTTCGCCAGGTGATTCTGTTGCCATTA	4410
CCTGCAGGGGTTCCACGCGTGCCAGGTAGCGGTTGA	8780
AAAGCGGTAATTTGTTCTGTGGGTGCAGATATCTAT	4070
CTAACGAAGGTTTGTGTCGTGGGTGACAAGCCAAGT	6140
TGCGCAACAACTTTTCACGTGGGGTTATGTCTAGAA	15400
AACGGGTTTCGAGATCTCGTGAGGATGGTTTTGGAA	5180
TAACGATGTCATTGCCACGTGGAACATCTTGATTGG	17800
GTCTTGTCTCATTTTCACGTGGTCTTCCCCACTTCA	14500
CTAACGAAGGTTTGGGACGTGGGTGACAAGCCAAGT	6950
CGGGCATGTTTCCGTCACATGATGGGATGGCGATGT	10000
CTTTCCCGATCTTGCGCCGTGGGTGTAGCACATTTG	5510
GTAACTGATGAGTACCATGTGTTTAACGATCTTGAG	10300
TTAACTGCCCAAGGACACATGCCCTGGGCTGGAACC	7810
AGAAACTTCAACTCACATATGCACTATGGATGCCAA	4860
TTACTCTTTAATAATCGGCAAGAAATAATTGAATTT	2930
CTTCTGTAAATTTTTCACGTGGCGTGAAGCGCCCCG	13100
CAAGTGGTGGTGATACACGTGAAGTTTTAGAGGAAA	12900

Block 2 — technique: DHFR PCA, deep sequencing; medium: yeast; together with: (+)-ABA 0.032 µM; baseline: wild-type fitted maximum; reading: higher = stronger binding
Target: ABI1, truncated, D143A, DHFR fusion (Arabidopsis thaliana)
Setting: methotrexate growth selection, single substitutions
Parent: PYL1, truncated, DHFR fusion (Arabidopsis thaliana); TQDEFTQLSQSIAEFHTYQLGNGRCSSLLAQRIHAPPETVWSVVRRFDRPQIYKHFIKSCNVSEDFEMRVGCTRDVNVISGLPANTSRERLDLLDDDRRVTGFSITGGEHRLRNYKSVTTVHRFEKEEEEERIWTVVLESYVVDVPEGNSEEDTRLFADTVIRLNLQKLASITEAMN; partner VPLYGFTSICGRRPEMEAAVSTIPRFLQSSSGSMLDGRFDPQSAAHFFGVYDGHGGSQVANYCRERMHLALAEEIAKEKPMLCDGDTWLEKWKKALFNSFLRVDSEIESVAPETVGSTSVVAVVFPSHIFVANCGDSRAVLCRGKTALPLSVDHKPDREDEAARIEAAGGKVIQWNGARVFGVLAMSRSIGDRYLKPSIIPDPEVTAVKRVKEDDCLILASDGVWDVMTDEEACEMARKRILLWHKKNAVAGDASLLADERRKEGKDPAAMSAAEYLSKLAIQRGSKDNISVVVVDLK
Variant	relative binding score [%]
R88G	-0.35
D97V	27.8
R99K	46.3
R74F	-3.05
R88K	31.7
Q167F	-5.24
D153L	-2.09
Q2F	59.1
E128Q	28
P36R	10
E38M	3.48

Block 3 — technique: universal PBM; form: double-stranded DNA, one strand shown; medium: in vitro; tested at: not given; reading: higher = stronger binding
Target: Sal-like protein 4, full length isoform B (SALL4, Homo sapiens, UniProt Q9UJQ4-2, residues 1-616)
Setting: 8-mer, flanks averaged, mean of replicates
Target sequence (chain): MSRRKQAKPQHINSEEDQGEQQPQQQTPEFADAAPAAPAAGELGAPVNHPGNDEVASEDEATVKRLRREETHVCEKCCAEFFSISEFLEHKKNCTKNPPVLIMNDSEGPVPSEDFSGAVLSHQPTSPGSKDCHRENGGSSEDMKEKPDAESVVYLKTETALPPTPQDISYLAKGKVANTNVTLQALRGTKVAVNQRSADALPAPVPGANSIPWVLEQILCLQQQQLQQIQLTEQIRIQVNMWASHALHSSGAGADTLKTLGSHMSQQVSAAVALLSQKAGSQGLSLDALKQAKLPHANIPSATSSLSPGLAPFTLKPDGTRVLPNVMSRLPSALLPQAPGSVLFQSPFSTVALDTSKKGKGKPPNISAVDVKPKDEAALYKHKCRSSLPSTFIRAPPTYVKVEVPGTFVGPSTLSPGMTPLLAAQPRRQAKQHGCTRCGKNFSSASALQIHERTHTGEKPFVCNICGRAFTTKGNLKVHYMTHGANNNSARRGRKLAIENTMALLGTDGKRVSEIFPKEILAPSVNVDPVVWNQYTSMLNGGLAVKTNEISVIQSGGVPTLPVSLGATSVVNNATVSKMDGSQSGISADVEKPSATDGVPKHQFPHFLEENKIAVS
Sequence	E-score
ACAAGCGT	-0.0268
ACTTGGCG	-0.144
AGTAGTAA	0.239
TCCCGCAA	-0.0646
ATGAGAAT	0.11
TTCGAAAA	0.171
GGTGCTGA	-0.358
CATTACCC	-0.017
ATGTGGAC	0.0557
CGCGGTAA	-0.085
CATTAAGC	0.0435
CAGGATAC	-0.047
CCATTATC	0.0997
CCAGCCTA	-0.31
AGTCACTC	-0.0812
CACGCCGC	-0.19
TGTGAGAA	0.12
CCCAGACA	-0.11
CTAGGAAC	-0.121
ATAAATGC	0.298
AACTTTAC	0.073
AGTTGCTA	0.173
TCCGTCAA	0.0543

Block 4 — target: CRIPT, C-terminal peptide; technique: DHFR complementation, deep sequencing; medium: yeast; baseline: wild type; reading: higher = weaker binding
Setting: single substitutions, model-inferred values
Parent: ERBIN, PDZ domain 1 (human); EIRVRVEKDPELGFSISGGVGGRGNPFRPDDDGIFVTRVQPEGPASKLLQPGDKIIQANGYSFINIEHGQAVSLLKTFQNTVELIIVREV; partner TKNYKQTSV
Variant	binding free energy change [kcal/mol]
D31M	1.08
F27K	1.21
N59H	0.323
G52C	0.365
K8M	1.55
G13N	1.21
D32V	0.225
P51Y	0.321
A45Y	1.45
H68M	0.982
D30L	0.184
I86H	0.701
R23C	-0.525
L12T	1.47
V39I	0.22

Block 5 — target: CCNB2, cyclin fold, Cln2 fusion (human); technique: yeast growth competition, sequencing; medium: yeast; setting: weak parent motif; baseline: not given; reading: higher = stronger binding
Parent: RBL2 docking peptide (human); STTRRRLFVENDS; partner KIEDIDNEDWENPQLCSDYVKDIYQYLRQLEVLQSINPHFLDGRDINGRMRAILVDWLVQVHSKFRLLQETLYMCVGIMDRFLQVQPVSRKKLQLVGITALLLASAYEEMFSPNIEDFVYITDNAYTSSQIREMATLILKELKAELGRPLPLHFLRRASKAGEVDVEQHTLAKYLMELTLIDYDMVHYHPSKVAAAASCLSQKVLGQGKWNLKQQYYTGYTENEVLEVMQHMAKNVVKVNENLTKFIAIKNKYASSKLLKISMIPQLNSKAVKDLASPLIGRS
Variant	normalised enrichment score
L7P	0.413
L7F	0.232
E10A	0.316
N11T	0.348
V9Q	0.221
D12R	0.898
F8P	0.431
R5D	-0.297
T2D	-0.0603
R4T	-0.281
R4I	0.26
N11H	0.268
V9H	0.521
T2M	0.481
R4P	-0.509
D12N	0.127
R6F	0.187
S1A	0.631
T2A	0.508
S13R	0.556
R5M	0.399
F8T	0.232
V9Y	0.564
T3S	0.303
R4E	-0.194

Block 6 — technique: protein binding microarray; form: double-stranded DNA, one strand shown; medium: in vitro; tested at: not given; baseline: not given; reading: higher = stronger binding
Target: Histone acetyltransferase KAT6A, both winged helices, GST fusion (KAT6A, Homo sapiens, UniProt Q92794, residues 1-181)
Setting: 8-mer, flanks averaged, mean of 2 arrays, mostly near background
Residues (chain): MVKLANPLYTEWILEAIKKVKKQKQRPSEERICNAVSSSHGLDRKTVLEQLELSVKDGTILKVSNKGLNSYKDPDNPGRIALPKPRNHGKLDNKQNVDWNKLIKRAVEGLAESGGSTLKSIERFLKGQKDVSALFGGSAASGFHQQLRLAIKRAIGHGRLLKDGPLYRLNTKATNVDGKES
Sequence	E-score
ACTCATTG	-0.166
AGGAATTC	-0.0707
CTCAGTTC	-0.186
AGGACTGA	-0.178
CCCTACCC	-0.104
CAAGGGGA	-0.292
AGACCGTA	0.0899
AAATGTCA	0.0188
ACTACAGG	-0.0978
AGAATCTC	-0.258
AGTTCAAC	-0.093
ACTAGCAG	-0.231
CTTTTAGC	0.0845
CGAAGAAC	-0.0161
AAATAATG	-0.0769
TCCTGAGA	-0.147
AAAAGTAT	-0.00203
GACAGTCA	0.0506
CTACGGCA	0.281
AGCCACCC	-0.0457
GCAAGCAC	-0.0503
AGAGATAC	0.0117
CGTCCAGC	0.0503
AATGCCCA	-0.283

Block 7 — technique: protein-binding microarray; form: double-stranded DNA, one strand shown; medium: in vitro; tested at: 940 nM top; setting: 60-bp whole probe; together with: salmon DNA 0.4 mg/ml; baseline: random background probes; reading: higher = stronger binding; shared flanks, not repeated: GCCTAGCAC … GTCTTGATTCGCTTGACGCTGCTG
Target: Interferon regulatory factor 5, full length, phosphomimetic (IRF5, Homo sapiens, UniProt Q13568-2, residues 1-514, S451D/S453D/S456D/S462D)
Sequence	fitted relative affinity
TTAGATCGCAGTATCGATTAGTGCTAG	3.87 z-score
TTAGGACTGGGGTTACGGTTAGTGCTA	0.192 z-score
GACGGATTCCTTTTCCTGACGTGCTAG	0.275 z-score
TTAGGTTTCCTTATACTTTAGTGCTAG	1.82 z-score
TTAGGTTTCGGTTTGGGTTAGTGCTAG	15.5 z-score
GACGGTATCGGGTATCTGGACGTGCTA	4.63 z-score
GCTCATTTTTTTTGCAAGCTGTGCTAG	0.684 z-score
TTAGATTTCTGGTATCGATTAGTGCTA	5.41 z-score
TTAGGTATCGACACTGGGTAAGTGCTA	4.72 z-score
TTCTCTTTCCTTCTTGATGCGTGCTAG	1.98 z-score
GACGATTTCAGTTCAGAGACGTGCTAG	0.538 z-score
TCTCATTTCCAATTACCTTTGTGCTAG	5.66 z-score
TTAGATTTGAGTCTCGATTAGTGCTAG	2.95 z-score
TTAGATTTCAGTCTCTATTAGTGCTAG	1.78 z-score
GACTGTATCGGGACTGGGGACGTGCTA	0.532 z-score
GACGGTCTCGGTCTCGGGACGTGCTAG	3.86 z-score
GACGCACTGGACTATCGGGACGTGCTA	-0.266 z-score

Other studies, line by line
Molecule	target	assay	system	setting	how to read	measurement	value
PhoQ, residues 284 288 289 292 302 303 TAVSDG	PhoP, residues 12 14 15 18 19 HEGLL (Escherichia coli, UniProt P23836)	Sort-seq, refers to: YFP reporter	E. coli	PhoQ-PhoP variant library, together with: 10 µM Mg2+	baseline: high Mg2+ state, higher = stronger signaling	fold induction	1.22

Some of these lines once more (block 5):
Variant	normalised enrichment score
L7P	0.413
L7F	0.232
E10A	0.316
N11T	0.348
V9Q	0.221
D12R	0.898
F8P	0.431
R5D	-0.297
T2D	-0.0603
R4T	-0.281
R4I	0.26
N11H	0.268
V9H	0.521
T2M	0.481
R4P	-0.509
D12N	0.127
R6F	0.187
